Measured values gathered from unrelated publications.
Parts stem from different laboratories: compare values within a part only.

Sample 1
Target: Histone acetyltransferase KAT6A, both winged helices, GST fusion (KAT6A, Homo sapiens, UniProt Q92794, residues 1-181)
Method: protein binding microarray
Form: double-stranded DNA, one strand shown
Medium: in vitro
Concentration: not given
Setting: 8-mer, flanks averaged, mean of 2 arrays, mostly near background
Relative to: not given
Reading: higher = stronger binding
Construct (chain): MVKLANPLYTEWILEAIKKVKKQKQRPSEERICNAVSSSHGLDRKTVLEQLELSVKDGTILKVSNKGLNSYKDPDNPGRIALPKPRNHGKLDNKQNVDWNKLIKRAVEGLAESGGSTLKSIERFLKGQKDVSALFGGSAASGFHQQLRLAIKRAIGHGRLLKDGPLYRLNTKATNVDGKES
Oligonucleotide	E-score
ATCATTGA	0.0364
CAAGACCA	-0.155
AGTTCTTA	-0.297
ATTATGAG	-0.0264
CGTCTAGA	0.191
AGTCCGTC	0.238
CATGTCGG	0.0334
ACAGGAAA	0.0614
AGAGTTGG	-0.227
AACGCTAT	0.0498
CGGTTGTC	0.064
GTAACAAA	-0.0981
AAGATGCT	-0.125
CCAACGCC	0.135
CACGTTGG	-0.231
ACGGAACC	0.294
ATTCTGAG	-0.122
AGTGGGTA	-0.116
TGACGCAA	0.0689
CATTGGGC	-0.104
CCAACCGA	-0.0869
CCAGTCTA	-0.139
CTACATGA	-0.0118
GAAAGGCA	-0.0915
GTCCCAAC	-0.11

Sample 2
Target: Interferon regulatory factor 7, full length, phosphomimetic (IRF7, Homo sapiens, UniProt Q92985, residues 1-503, S471D/S472D/S475D/S476D/S477D/S483D/S484D/S487D)
Method: protein-binding microarray
Form: double-stranded DNA, one strand shown
Medium: in vitro
Concentration: 2200 nM top
Setting: 60-bp whole probe
Together with: salmon DNA 0.4 mg/ml
Relative to: random background probes
Reading: higher = stronger binding
All sequences stand within: GCCTAGCAC … GTCTTGATTCGCTTGACGCTGCTG
Construct (chain): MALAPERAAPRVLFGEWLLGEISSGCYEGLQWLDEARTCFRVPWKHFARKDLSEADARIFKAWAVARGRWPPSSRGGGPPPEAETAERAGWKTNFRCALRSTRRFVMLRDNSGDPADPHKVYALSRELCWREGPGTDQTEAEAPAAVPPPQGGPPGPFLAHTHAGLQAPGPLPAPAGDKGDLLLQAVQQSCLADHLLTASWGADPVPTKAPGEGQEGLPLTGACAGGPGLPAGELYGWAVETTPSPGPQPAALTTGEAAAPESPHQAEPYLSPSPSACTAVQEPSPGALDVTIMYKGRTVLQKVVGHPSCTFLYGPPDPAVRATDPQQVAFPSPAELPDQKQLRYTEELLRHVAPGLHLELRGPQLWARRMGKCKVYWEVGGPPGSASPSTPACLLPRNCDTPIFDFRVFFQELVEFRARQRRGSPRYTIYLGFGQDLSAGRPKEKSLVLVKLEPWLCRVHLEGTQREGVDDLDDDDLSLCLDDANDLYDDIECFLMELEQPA
Oligonucleotide	fitted relative affinity [z-score]
GACGATTTCGGACTGGGGACGTGCTAG	1.55
ATATATATTCATATATATATGTGCTAG	0.799
GACGATTCCAGTTGCGAGACGTGCTAG	0.887
TTAGATTTCGGGACTCGATTAGTGCTA	1.62
TTAGATCTCAGTATCGAGTAGTGCTAG	-0.105
TCAATGTTACATTTATAACTGTGCTAG	0.473
CATTTTCTAAATTCCCTAGTGTGCTAG	3.21
TTAGGTCTCGGTTTCGGTCAGTGCTAG	4.12
TTAGAATTCAGTATCGATTAGTGCTAG	0.0622
CACGGACTGGACACTGGGGACGTGCTA	-0.825
TTAGATTTCGGGTTTCGATTAGTGCTA	6.13
TCAGCTTTCCTCGTGATACTGTGCTAG	1.67
TACGGACTGCTACTGCTGACGTGCTAG	-0.115
GACGATTCCAGTGTCGAGACGTGCTAG	0.467
GAATGATTACATATATGTTGGTGCTAG	0.344
GACGATTTCGGGTATTGAGACGTGCTA	2.36
GACGAACTGAGTATCAAGACGTGCTAG	-0.434
TTAGGTCTCCTTATCGTTTAGTGCTAG	0.994
GACGGTTCCGGGTTCGGGACGTGCTAG	1.79
AACGGACTGGGTATCGGGACGTGCTAG	-0.683
TCACATTTTTTTTTTCAACTGTGCTAG	1.67
TTAGATATCGGCACTGGATTAGTGCTA	-0.403
TTAGGTCTCCCTATCCTTTAGTGCTAG	0.942
GACGGACTGGGTTTCGGGCCGTGCTAG	0.214
GACGGTTTCGGGTATAGGGACGTGCTA	4.75

Sample 3
Target: Hepatocyte nuclear factor 3-alpha (Foxa1, Mus musculus, UniProt P35582, residues 1-468, full length assumed)
Method: EMSA with sequencing
Form: double-stranded DNA, one strand shown
Medium: in vitro
Concentration: 10 and 20 nM
Setting: whole designed probe, mean of two concentrations, ends assumed
Relative to: negative control set to 0
Reading: higher = stronger binding
All sequences stand within: GTGAGCGGTGCCCATTGATGGGGAAC … TTTCACTGGGATCGTGGGGAC
Construct (chain): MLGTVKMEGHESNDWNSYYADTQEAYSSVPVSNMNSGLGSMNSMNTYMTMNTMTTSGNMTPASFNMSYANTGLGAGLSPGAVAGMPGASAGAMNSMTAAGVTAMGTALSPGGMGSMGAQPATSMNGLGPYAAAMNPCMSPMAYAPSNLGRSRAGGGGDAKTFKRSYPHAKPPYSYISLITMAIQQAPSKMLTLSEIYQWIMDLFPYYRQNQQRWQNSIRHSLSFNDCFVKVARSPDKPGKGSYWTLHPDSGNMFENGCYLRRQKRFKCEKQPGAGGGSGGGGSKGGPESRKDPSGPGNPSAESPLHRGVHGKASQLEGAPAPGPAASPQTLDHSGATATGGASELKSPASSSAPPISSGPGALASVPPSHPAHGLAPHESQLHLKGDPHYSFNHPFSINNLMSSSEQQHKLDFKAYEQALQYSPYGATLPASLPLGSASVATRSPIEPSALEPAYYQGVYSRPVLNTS
Oligonucleotide	normalised bound fraction [ratio]
ACTTCCACAAGGGAAGATAATGATAAAACATTAATAAAAATATCTATGAAGATGAGGACACAATAGAAAGCACAAGTTACATTGGGAAAAAGAGTCATCTGATACAACAAGATAATTCACATCCCAATAATTAAGGGTAATAAAGCAATATGAAAGAGGTAAGTATGCTTAAAATGTTTATTGACCAAAAGAA	0.228
AAAGAAAAAAAAAAAAGAAATACCGAAGTGGTTCCCCAAGGCACCAATTTAAAGTGTATATGTGCAGTGCAGGGTTACTGGACCAAGGCACAGTGTAATCTGCGAAATTTTATTTTTTGTTTTCTTTTTCCTAAGATGTTCCTTACTCCCAGTTACATAAAAATGTGTATTACAAGCAAACAAAAATTAACAG	0.123
CTCGGAATTTAGATACATTAACCAGCTTTTCAGCAAATGTCACTTACCATAAGTTAGTTATTGTTTGTTTGTTTTTTGGGTATGTCAATTATATGTAAACATGGGGAAGCATTTCTAATTAATGTATTCATCAAATGTTATTTGTTTTAAAATAATTTTATTGTCCTTCATTACTAGGTTCTAAAATTGATAT	0.539
ACAACATCAGGTCATTATTTATCCACTTGTCCTTTTTTTTTTTATCATTCCTTTGAACTGCCTGCATTTGCTTATCGTGATATTTCTCAGTCTGTAAACAGCCCGAGTAGCTGTTCTATTTCTCTAAATAGAGTCTTAGGTCATTTTATTATCCAGAATTGTAAGTCATCAGAATGCACCCATCTGTTGTCCT	0.123
CATGTTCCAAGAGAAGAGAAGGTAAAGCAGTGTCTATGTTACAAACAAAAAGGAACTGAGCTACAAGACTGAAAAACTGAAAGAAACAGCAATGTAATCTAGCCGTTTACTTGACATCATAAATGTATCTTTGGCTTTCTACTCCTCTCCCTCAAAAAAAAGGAAAGAAAACGTATCAAAATAGGTTAGGCAG	-0.0282
TGTATGAAATTTGTACAGAGGTGGAATCGTTTCTGCCATTTTTCACACACAAGTTGGTGCACATTCCTAATATGAATTAAAAATAAATATGCCAAGAGTACTCTGGGATGAGTCATCTTTGCATGCAGCCAGCCATGGCCACTGGGAGAAGAGTCAGACATGGGCCATGGAGCTGCAGGCTCACCTGCCCCCG	0.0983
TTTTAAAAGGTTTTTAAAAGAATAAACAATTTTCTTTAAAAAATCATGCTACTGTAACATGATTTTACATAAAGACTGTACATATTGTAACAATGTAAACAAAGAATGATTTACTCTAATGGAAGCCAAGGGTGACAATAAAATCCTCTAAGCTGCAAATGGTGAAGTTATAGGGCCCAACCTGAAAGAGGGG	0.487
ACTGCCTGCTCCCAGATATATAGCATTAGGGCAGGGATAAATTTCAAGCTGGCAAAAGTCCAAACCCAACAGTTGCAGCTGTAGTAGCTGCCTTGTTTACAAAGCAATTCAGGAAGCTTTTAGAGGGCAGAGTGCACCAGACAGAAGGGGGTCTGTACGCAAAACATGGATGCATCCCAATGCTTTCAGAACA	0.265

Sample 4
Target: RNA binding protein fox-1 homolog 2, RRM domain, GST-SBP tag (RBFOX2, Homo sapiens, UniProt O43251-10, residues 100-194)
Method: RNA Bind-n-Seq
Form: RNA
Medium: in vitro
Concentration: 365 nM
Setting: natural RNA segment, single round, ends assumed
Relative to: no-protein control
Reading: higher = stronger binding
All sequences stand within: GGGAGUUCUACAGUCCGACGAUC … UGGAAUUCUCGGGUGCCAA
Residues (chain): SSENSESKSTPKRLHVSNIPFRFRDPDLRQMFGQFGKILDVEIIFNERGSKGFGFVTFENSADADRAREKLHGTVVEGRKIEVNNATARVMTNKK
Oligonucleotide	RBNS enrichment (R)
AGGCCGCAUUUCUGACCUGAGCCCCGGGUCUCGGCUGUUUCGAGCCCCGCCUCGGACUUGCCUUCCCUCCCCUCCGGGUGAGCCUGUCUGGCGCCUUCCUCGCCCCGGGC	0.734
CAGAUACCCAGUGGAAUUCCAACUUGAAGGAUUGCAUCCUGCUGGGGCUGAACAUGCCUGCCAAAGACGUGUCCGACCUACGUUCCUGGCCCCCUCAUUCAGAGACUGCC	0.819
GCCGCCAACGUCAUUGGGCCCAAGAUCUGCCUCGAGGACAAGAGGCUGAUGAGCAGCGUCAAGGACAACGUGGGCCGCGGGCUGAACAUCGCCCUGGUGAACGGGGUCAG	0.357
UUAGUCACGGAGUUGCCAUGGCAUGUAGUAGAAAACCACAGGAAGAAUGGUCAUAUUCACUUUGUGGGCUGCCCAUAAUCUUUCUUGGGCAUUCACAACUCUUGAGUUUG	2.16
CAGGCCCAGCAGCCAUGCCCCGCCAAGAAGCAUGCUGGGAGUAAGGUCUUUGCCAUCAAGGGUAUUUGGGUGACAUUUCAAAAUUUGUCCUCAUUAAAUGGAUGGGUGGG	0.417
CCUGAGCACAAGAAGCAGUAAGUUGGCACCUUGCCACACUGUUGGUUGGGCCCAGGUGCUGCUCAGCCAGGAAACGAGAGCAAACACUCCAGGGCCUUUGCAAGCCCAUC	0.282
GCGUCUAAAAGUAUUGCACACAAAAUCAACUUUUUACUCCAAUUUCCUCCAACUCCAAAACCCAAAGUGUCCGUGCUGUGUCCCUGUGCUUCACUGGGUUUCUCAACCGU	0.705
UUGGAAUCACACCCUCCGGUUAUGUUGCUCCAGUAAAAUCUUGCCUGGAAAGAGGCAGUCUUCUUAGCAUGGUGAGCUGAGUUCAUGGCUUUUUUUUGUAGCCAGUCCUG	2.38
ACCUCAUGCCUGGCCCCCCUCCAGGCAUGCUGGCCUCCCAAUAAAGCUGGACAAGAAGCUGCUAUGAGUGGGCCGUCGCAAGUGUGCCAUCUGUGUCUGGGCAUGGGAAA	0.625
GAGGCCACUGGCUUCCAUCCUAAGAAUGAGGUGCAACAAGACCCCAUUCUCACAGAACCUCAAAGACUUGGUUCCAGGCUCUCCAGAGACCAUACCCAACUCAUGUGCAU	0.229
CAAGUGCAGGGGCCUCCCUACGUUCUGUACCCUAAAUCCCAAGGUCAGGUUGGGGACCAACCUUGGGCUUAUCCACCCCCCAGUCUUCCCUCCCUCUCUUGCCAGCACAU	1.6
UUAAAAAGAAAUUAUUCUCAUUGCUGUAUUAUAUUGGAAAAGUUUUAAACAACCAAGCUAAAGCUAUGUGAAAGUUGAGCUCAAAGUAGAGGAAAAGUUACUGGUGGUAC	0.439

A few entries again (sample 2):
Oligonucleotide	fitted relative affinity [z-score]
GACGGTTCCGGGTTCGGGACGTGCTAG	1.79
TTAGATTTCGGGACTCGATTAGTGCTA	1.62
TTAGATATCGGCACTGGATTAGTGCTA	-0.403
GACGAACTGAGTATCAAGACGTGCTAG	-0.434
GACGGTTTCGGGTATAGGGACGTGCTA	4.75
TTAGGTCTCCCTATCCTTTAGTGCTAG	0.942
TCAGCTTTCCTCGTGATACTGTGCTAG	1.67
TCACATTTTTTTTTTCAACTGTGCTAG	1.67
